Published values from different studies.
Parts stem from different laboratories: compare values within a part only.

Set 1
Target: RNA binding protein fox-1 homolog 2, RRM domain, GST-SBP tag (RBFOX2, Homo sapiens, UniProt O43251-10, residues 100-194)
Technique: RNA Bind-n-Seq
Molecule type: RNA
Medium: in vitro
Concentration: 365 nM
Notes: natural RNA segment, single round, ends assumed
Baseline: no-protein control
Reading: higher = stronger binding
Endpoint: RBNS enrichment (R)
Constant ends, left off below: GGGAGUUCUACAGUCCGACGAUC … UGGAAUUCUCGGGUGCCAA
Construct (chain): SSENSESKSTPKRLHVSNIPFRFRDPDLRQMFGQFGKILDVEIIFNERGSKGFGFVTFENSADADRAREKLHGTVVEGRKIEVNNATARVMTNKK
GGGUUGUGGCCCGAGGCUGCAGUCAGAGGUAUACUUCCCAUAGUGCUUCACACAGCUCCCCUGCUUCUAAAGGAUAAGGUACUGUAGCCUUGGUCCUGGGGACCACCUGC: 1.71
GCACAGCCCUUGCCUGGAGCCCAGGAACCCCAUCCUUGCUUCAUCUCAGUUCUUCAUGGGCUUCACUCUUCCCACUCACGGAAGGGAGGUAGCUCAGGGACCUCCACUGU: 0.23
GGACUGGUGCUAACCACCUGCCAUCAUGAGGAUGUGUGCUAGAGUGUGGGACCCUGGCCAAGUGCAGGAAUGGGCCAUGCCGUCUCACCCACAGUAUCACACGUGGAACC: 3
UGUCUUUUCAGUGCAGGCUGUAACAACCCACUCAGGAGACAGUGAGAGUGAAAAGGUAUUAAGGAAAAAGCCCCCAGCGGCACUAUGGGGGCUCCCUGGCGCAUGCCUGC: 1.45
UGAACAGCUGCUGUAGUGAUGAAACUCUUGCUUAAAAAGGAUGCCUCUUGUUUUUUGCUGCUGUAACUUACCAGAAAGUGUUCUAUAUUUAUUUCUGUUUGAAUUUGAAA: 0.765
AAUUUUGGAGGGCAAGACAGGGAGGAGGCCGCUUCAUCCCAGACUCUCUUCUAGGGCUUCCCACCAUCAGCCCCUCCCACUUGAGACUGGUCUUUGGGAGGCAAUAGGCC: 0.462
UGGCUUGGACCUGAAAUCUGCCCCCAACAGUGUCCAAGUGCACAUGACUUUGAGCCAUCUCCAGAGAAGGAAGUGAAAAUUGUGGCUCCCCAGUCGAUUGGGACACAGUC: 1.74
UACAUUUGGGGAAAGCCUUGGGUGUAAAUCAGUGUAAACUUGGAGGAGAGAUUUUUCUAUCAUGUAGAGUAGGUAUUUUUUAUAGAUUGAAGGUUGAUCAAUUUUUUAAU: 0.762

Set 2
Target: Sal-like protein 4, full length isoform B (SALL4, Homo sapiens, UniProt Q9UJQ4-2, residues 1-616)
Technique: universal PBM
Molecule type: double-stranded DNA, one strand shown
Medium: in vitro
Concentration: not given
Notes: 8-mer, flanks averaged, mean of replicates
Reading: higher = stronger binding
Endpoint: E-score
ATAAGGCG: 0.0984
ACGCGCAA: -0.0445
CAAATTCG: 0.00916
AATGTACT: 0.171
TCCAAACA: 0.0357
CAGTAGAC: 0.0103
CCCTACCC: -0.134
GATGAGGA: -0.0372
GTGATCAA: 0.0815
ATGCGGAG: -0.219
ATACCAAT: 0.169
TCTCACCA: 0.0259
TTAAGTAA: 0.247
ACAACAGA: 0.076
CACCGATG: -0.0262
GGTTGGAC: -0.11
GTCTGAAC: -0.0659
CCACATTA: 0.193
ATATAAAA: 0.356
AAAAGGTG: 0.00213

Set 3
Target: Histone acetyltransferase KAT6A, winged helix 2, GST fusion (KAT6A, Homo sapiens, UniProt Q92794, residues 85-181)
Technique: protein binding microarray
Molecule type: double-stranded DNA, one strand shown
Medium: in vitro
Concentration: not given
Notes: 8-mer, flanks averaged, mean of 2 arrays, mostly near background
Baseline: not given
Reading: higher = stronger binding
Endpoint: E-score
Residues (chain): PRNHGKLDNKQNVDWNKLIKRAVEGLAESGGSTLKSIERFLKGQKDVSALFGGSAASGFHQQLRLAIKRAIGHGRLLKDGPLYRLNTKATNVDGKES
AACCCTCC: -0.0518
GGTCAATA: -0.0887
AGAGCCTC: -0.0863
ACGTAACA: -0.196
GTACCTCA: -0.0481
ACTACCAA: 0.01
CCAAAATA: 0.141
CTCTTATC: -0.116
GGCTTACC: 0.0412
ACCTGTAA: -0.238
CCCTCCTA: -0.083
CATCTAAA: 0.114
ATTCAGAA: 0.141
CGAAGCAC: 0.0769
AGCGCTGC: 0.0832
ATAAGACA: -0.147
CAACCAAG: 0.0757
AGGATTAA: -0.0462
ACTCTGGC: 0.1
GATTCACC: -0.0307
ACTGCCAG: 0.0747
CACGGTGG: -0.0607
CCAGAAGA: -0.129
AAACTTAG: -0.163
CTTGTTAC: -0.0945

Set 4
Target: Interferon regulatory factor 7, full length, phosphomimetic (IRF7, Homo sapiens, UniProt Q92985, residues 1-503, S101K/S471D/S472D/S475D/S476D/S477D/S483D/S484D/S487D)
Technique: protein-binding microarray
Molecule type: double-stranded DNA, one strand shown
Medium: in vitro
Concentration: 250 nM
Notes: 60-bp whole probe
Added: salmon DNA 0.4 mg/ml
Baseline: random background probes
Reading: higher = stronger binding
Endpoint: log fluorescence
Constant ends, left off below: GCCTAGCAC … GTCTTGATTCGCTTGACGCTGCTG
Residues (chain): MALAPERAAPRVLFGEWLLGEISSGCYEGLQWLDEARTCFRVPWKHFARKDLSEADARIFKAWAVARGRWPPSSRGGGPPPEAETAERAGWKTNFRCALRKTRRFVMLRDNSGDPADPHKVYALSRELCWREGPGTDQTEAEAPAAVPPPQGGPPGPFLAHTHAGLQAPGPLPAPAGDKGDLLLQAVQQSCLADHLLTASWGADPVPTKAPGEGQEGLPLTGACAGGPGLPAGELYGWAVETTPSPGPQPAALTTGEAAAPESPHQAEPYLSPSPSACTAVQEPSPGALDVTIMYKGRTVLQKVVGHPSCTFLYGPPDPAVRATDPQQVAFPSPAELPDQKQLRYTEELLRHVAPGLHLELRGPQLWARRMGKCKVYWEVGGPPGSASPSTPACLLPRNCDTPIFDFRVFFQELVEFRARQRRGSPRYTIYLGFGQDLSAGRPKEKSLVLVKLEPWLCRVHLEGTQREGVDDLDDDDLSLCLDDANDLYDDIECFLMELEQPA
TTAGGTATCGGGTTTCAGTTAGTGCTA: 2.74 z-score
GACGGTTTCGGTATCGGGATGTGCTAG: 10.3 z-score
TCATATTTTTTTCTAATACTGTGCTAG: 1.2 z-score
TCACATATACACTGTGTATCTGTGCTA: 0.171 z-score
GACGACCTCAGTCTCGAGACGTGCTAG: 0.568 z-score
TCACTCCTCTCTCTTTCACTGTGCTAG: 0.358 z-score
TTAGGACTGGGGTATCGGTTCGTGCTA: 1.47 z-score
TTAGGTATCGGGTATCGATTAGTGCTA: 1.56 z-score
TTAAGTTTCCTTCTCCTTTAGTGCTAG: 2.99 z-score
TCAGCTTCCATTTTCTGACTGTGCTAG: 0.775 z-score
ACTTCCCTCGGGTTGCGGAGCGTGCTA: 1.11 z-score
CTTTTTAGAAATTTCTTTCTGTGCTAG: 2.45 z-score
TTAGATATCAGTATCGAATAGTGCTAG: 0.426 z-score
TTAGGTTTCGGGAATCGGTTAGTGCTA: 3.64 z-score
GACGGACTGGGACTCGGGACGTGCTAG: 0.0456 z-score
TCGGGTCTCCCTTGAGGTTTGTGCTAG: 0.376 z-score
GACGGTTTCGGGACTGGTGACGTGCTA: 3.85 z-score
GACGATTTCCGTATCGAGACGTGCTAG: 1.09 z-score
TTAGGTTTCGGATCCGGTTAGTGCTAG: 8.3 z-score

For quick reference, copied from above (set 1):
GGGUUGUGGCCCGAGGCUGCAGUCAGAGGUAUACUUCCCAUAGUGCUUCACACAGCUCCCCUGCUUCUAAAGGAUAAGGUACUGUAGCCUUGGUCCUGGGGACCACCUGC: 1.71
GCACAGCCCUUGCCUGGAGCCCAGGAACCCCAUCCUUGCUUCAUCUCAGUUCUUCAUGGGCUUCACUCUUCCCACUCACGGAAGGGAGGUAGCUCAGGGACCUCCACUGU: 0.23
GGACUGGUGCUAACCACCUGCCAUCAUGAGGAUGUGUGCUAGAGUGUGGGACCCUGGCCAAGUGCAGGAAUGGGCCAUGCCGUCUCACCCACAGUAUCACACGUGGAACC: 3
UGUCUUUUCAGUGCAGGCUGUAACAACCCACUCAGGAGACAGUGAGAGUGAAAAGGUAUUAAGGAAAAAGCCCCCAGCGGCACUAUGGGGGCUCCCUGGCGCAUGCCUGC: 1.45
UGAACAGCUGCUGUAGUGAUGAAACUCUUGCUUAAAAAGGAUGCCUCUUGUUUUUUGCUGCUGUAACUUACCAGAAAGUGUUCUAUAUUUAUUUCUGUUUGAAUUUGAAA: 0.765
AAUUUUGGAGGGCAAGACAGGGAGGAGGCCGCUUCAUCCCAGACUCUCUUCUAGGGCUUCCCACCAUCAGCCCCUCCCACUUGAGACUGGUCUUUGGGAGGCAAUAGGCC: 0.462
UGGCUUGGACCUGAAAUCUGCCCCCAACAGUGUCCAAGUGCACAUGACUUUGAGCCAUCUCCAGAGAAGGAAGUGAAAAUUGUGGCUCCCCAGUCGAUUGGGACACAGUC: 1.74
UACAUUUGGGGAAAGCCUUGGGUGUAAAUCAGUGUAAACUUGGAGGAGAGAUUUUUCUAUCAUGUAGAGUAGGUAUUUUUUAUAGAUUGAAGGUUGAUCAAUUUUUUAAU: 0.762
